Measured values gathered from unrelated publications.
Compare with care: the assays were run in different laboratories. Numbers after ± are the reported error.

With `N=C(N)NCCC[C@@H]1NC(=O)[C@H](CCCCNC(=O)CNC(=O)CNC(=O)CNC(=O)CC[C@H](NC(=O)CCOCCOCCOCCOCCNC(=O)CC[C@H](NC(=O)CN2CCN(CC(=O)O)CCN(CC(=O)O)CCN(CC(=O)O)CC2)C(=O)NCCOCCOCCOCCOCCC(=O)N[C@@H](CCC(=O)NCC(=O)NCC(=O)NCC(=O)NCCCC[C@@H]2NC(=O)[C@@H](Cc3ccccc3)NC(=O)[C@H](CC(=O)O)NC(=O)CNC(=O)[C@H](CCCNC(=N)N)NC2=O)C(=O)NCC(=O)NCC(=O)NCC(=O)NCCCC[C@@H]2NC(=O)[C@@H](Cc3ccccc3)NC(=O)[C@H](CC(=O)O)NC(=O)CNC(=O)[C@H](CCCNC(=N)N)NC2=O)C(=O)NCC(=O)NCC(=O)NCC(=O)NCCCC[C@@H]2NC(=O)[C@@H](Cc3ccccc3)NC(=O)[C@H](CC(=O)O)NC(=O)CNC(=O)[C@H](CCCNC(=N)N)NC2=O)NC(=O)[C@@H](Cc2ccccc2)NC(=O)[C@H](CC(=O)O)NC(=O)CNC1=O` [indium-111 labelled] the tissue uptake was 0.27 ± 0.07 %ID/g (female athymic nude mice, muscle; intravenous, 3 µCi, 72 h, U-87 MG glioma xenograft).
For `CC(C)C[C@@H]1NC(=O)[C@H](C(C)C)NC(=O)[C@H](CO)NC(=O)CNC(=O)CNC(=O)[C@H](CCCNC(=N)N)NC(=O)[C@@H]2CCCN2C(=O)[C@@H](NC(=O)CC[C@H](NC(=O)c2ccc(N(C)Cc3cnc4nc(N)nc(N)c4n3)cc2)C(=O)O)C(C)(C)SSC[C@@H](C(=O)O)NC(=O)CNC(=O)[C@H]([C@@H](C)O)NC(=O)[C@H](C(C)C)NC1=O`, “pH of maximum stability” read 6 (70 °C).
`C[C@H](NC(=O)CNC(=O)[C@H](CCC(=O)O)NC(=O)[C@H](CCC(=O)O)NC(=O)[C@H](CC(=O)O)NC(=O)[C@@H]1CCCN1C(=O)[C@H](Cc1ccccc1)NC(=O)[C@H](CS)NC(=O)[C@H](Cc1ccc(O)cc1)NC(=O)CCCNC(=O)CNC(=O)CNC(=O)[C@@H](C)NC(=O)CN)C(=O)N[C@@H](CS)C(=O)N[C@@H](Cc1ccc(O)cc1)C(N)=O` [technetium-99m labelled] has a radiochemical purity of 93.4 ± 1.78% (radio-HPLC; human serum; 2 h, 37 °C, serum mix 1:10 v/v).
With `CSCC[C@H](NC(=O)[C@H](CC(C)C)NC(=O)[C@H](Cc1c[nH]cn1)NC(=O)CNC(=O)[C@@H](NC(=O)[C@H](C)NC(=O)[C@H](Cc1c[nH]c2ccccc12)NC(=O)[C@H](CCC(N)=O)NC(=O)CCCCCNC(=O)CNC(=O)CNC(=O)CNC(=O)CSC(C)=O)C(C)C)C(N)=O` [technetium-99m labelled] the tissue uptake was 1.56 ± 0.33 %ID/g (Swiss mouse, lung; intravenous, 18.5 MBq, 5 min).
`CCCC[C@H](NC(=O)CNC(=O)CNC(=O)CNC(=O)c1ccc(NN)nc1)C(=O)N[C@H]1CC(=O)NCCCC[C@@H](C(N)=O)NC(=O)[C@H](Cc2c[nH]c3ccccc23)NC(=O)[C@H](CCCNC(=N)N)NC(=O)[C@@H](Cc2ccccc2)NC(=O)[C@H](Cc2c[nH]cn2)NC1=O` [technetium-99m labelled] gave an uptake of 0.26 ± 0.03 %ID/g (C57 mouse, B16/F1 melanoma, liver; intravenous, 2 h).
With `N=C(N)NCCC[C@@H]1NC(=O)[C@H](CCCCNC(=O)CCOCCOCCOCCOCCNC(=O)CN2CCN(CC(=O)O)CCN(CC(=O)O)CCN(CC(=O)O)CC2)NC(=O)[C@@H](Cc2ccccc2)NC(=O)[C@H](CC(=O)O)NC(=O)CNC1=O` [indium-111 labelled] the tissue uptake was 0.02 %ID/g (female athymic nude mice, brain; intravenous, 3 µCi, 72 h, U-87 MG glioma xenograft).
With `CCCC[C@H](NC(=O)CNC(=O)CNC(=O)c1ccc(NN)nc1)C(=O)N[C@H]1CC(=O)NCCCC[C@@H](C(N)=O)NC(=O)[C@H](Cc2c[nH]c3ccccc23)NC(=O)[C@H](CCCNC(=N)N)NC(=O)[C@@H](Cc2ccccc2)NC(=O)[C@H](Cc2c[nH]cn2)NC1=O` [technetium-99m labelled] the tissue uptake was 0.03 ± 0.01 %ID/g (C57 mouse, B16/F1 melanoma-bearing, blood; intravenous, 24 h).
For `CC[C@H](C)[C@H](NC(=O)[C@@H](NC(=O)[C@H](CC(N)=O)NC(=O)[C@H](CCC(N)=O)NC(=O)[C@@H]1CCCN1C(=O)[C@@H](NC(=O)[C@H](Cc1ccc(O)cc1)NC(=O)CNC(=O)[C@H](Cc1ccc(O)cc1)NC(=O)[C@H](Cc1c[nH]c2ccccc12)NC(=O)[C@H](Cc1c[nH]cn1)NC(=O)[C@H](Cc1ccc(O)cc1)NC(=O)CNC(=O)CCOCCOCCOCCNC(=S)Nc1ccc(C2=[N+]3C(=C(c4ccc(OC)cc4)c4cc(Cl)c(-c5ccc(OC)cc5)n4[B-]3(F)F)C=C2Cl)cc1)[C@@H](C)O)C(C)C)C(N)=O`, the aggregation threshold was greater than 10 µM (SPR; buffer with 4% DMSO; pH 7.5).
For `CCCC[C@H](NC(=O)CCCCCCCNC(=O)c1ccc(NN)nc1)C(=O)N[C@H]1CC(=O)NCCCC[C@@H](C(N)=O)NC(=O)[C@H](Cc2c[nH]c3ccccc23)NC(=O)[C@H](CCCNC(=N)N)NC(=O)[C@@H](Cc2ccccc2)NC(=O)[C@H](Cc2c[nH]cn2)NC1=O` [technetium-99m labelled], the uptake was 0.01 ± 0.01 %ID/g (C57 mouse, B16/F1 melanoma, brain; intravenous, 24 h).
